Results gathered from unrelated publications.
Protocols differ between the studies behind these lines.
PFF0160c: Dihydroorotate dehydrogenase (quinone), mitochondrial (PFF0160c, Plasmodium falciparum, UniProt Q08210)
UniProt Q08210, sequence (whole entry, looked up): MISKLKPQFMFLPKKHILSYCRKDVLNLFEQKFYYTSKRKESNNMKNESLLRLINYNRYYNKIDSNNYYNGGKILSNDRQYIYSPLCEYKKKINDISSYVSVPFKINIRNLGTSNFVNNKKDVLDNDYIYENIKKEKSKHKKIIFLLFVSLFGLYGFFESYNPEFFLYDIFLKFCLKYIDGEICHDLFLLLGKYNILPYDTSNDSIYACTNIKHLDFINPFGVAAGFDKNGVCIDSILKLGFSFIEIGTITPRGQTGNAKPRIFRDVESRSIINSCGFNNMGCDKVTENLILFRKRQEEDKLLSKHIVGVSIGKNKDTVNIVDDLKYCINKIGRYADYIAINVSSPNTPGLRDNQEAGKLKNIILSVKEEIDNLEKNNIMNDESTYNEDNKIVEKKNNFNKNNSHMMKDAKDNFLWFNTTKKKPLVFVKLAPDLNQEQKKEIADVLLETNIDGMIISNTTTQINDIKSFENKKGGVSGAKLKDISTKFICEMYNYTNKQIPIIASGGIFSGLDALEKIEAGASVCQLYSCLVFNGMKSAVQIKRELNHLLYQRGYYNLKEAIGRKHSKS
TMPRSS2: Transmembrane protease serine 2 (TMPRSS2, Homo sapiens, UniProt O15393)
UniProt O15393, sequence (whole entry, looked up): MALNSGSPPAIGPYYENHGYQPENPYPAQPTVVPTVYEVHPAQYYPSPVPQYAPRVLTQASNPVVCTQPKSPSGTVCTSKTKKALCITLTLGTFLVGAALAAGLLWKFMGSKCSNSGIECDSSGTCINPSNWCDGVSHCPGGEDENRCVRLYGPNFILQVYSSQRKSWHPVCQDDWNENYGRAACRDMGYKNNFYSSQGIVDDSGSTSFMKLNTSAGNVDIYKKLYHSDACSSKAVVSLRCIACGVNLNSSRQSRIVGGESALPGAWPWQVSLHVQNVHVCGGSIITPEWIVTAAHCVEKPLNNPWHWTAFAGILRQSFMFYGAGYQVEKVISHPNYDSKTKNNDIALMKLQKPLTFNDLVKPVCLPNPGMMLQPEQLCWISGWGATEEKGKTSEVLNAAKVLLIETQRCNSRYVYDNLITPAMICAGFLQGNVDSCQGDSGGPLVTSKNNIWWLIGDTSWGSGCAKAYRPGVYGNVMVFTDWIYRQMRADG
UniProt P08588, sequence (whole entry, looked up): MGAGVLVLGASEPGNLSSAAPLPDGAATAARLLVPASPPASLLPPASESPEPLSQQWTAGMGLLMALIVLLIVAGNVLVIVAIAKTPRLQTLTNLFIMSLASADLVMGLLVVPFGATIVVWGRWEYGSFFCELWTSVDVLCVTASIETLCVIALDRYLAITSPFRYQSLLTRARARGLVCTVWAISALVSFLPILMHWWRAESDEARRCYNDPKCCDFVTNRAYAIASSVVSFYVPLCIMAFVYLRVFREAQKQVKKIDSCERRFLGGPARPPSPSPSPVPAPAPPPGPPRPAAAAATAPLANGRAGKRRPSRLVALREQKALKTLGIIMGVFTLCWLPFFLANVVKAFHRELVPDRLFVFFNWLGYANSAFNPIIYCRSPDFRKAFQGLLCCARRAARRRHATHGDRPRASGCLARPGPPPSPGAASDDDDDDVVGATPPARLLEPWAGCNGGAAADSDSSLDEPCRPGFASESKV
UniProt O43318, sequence (whole entry, looked up): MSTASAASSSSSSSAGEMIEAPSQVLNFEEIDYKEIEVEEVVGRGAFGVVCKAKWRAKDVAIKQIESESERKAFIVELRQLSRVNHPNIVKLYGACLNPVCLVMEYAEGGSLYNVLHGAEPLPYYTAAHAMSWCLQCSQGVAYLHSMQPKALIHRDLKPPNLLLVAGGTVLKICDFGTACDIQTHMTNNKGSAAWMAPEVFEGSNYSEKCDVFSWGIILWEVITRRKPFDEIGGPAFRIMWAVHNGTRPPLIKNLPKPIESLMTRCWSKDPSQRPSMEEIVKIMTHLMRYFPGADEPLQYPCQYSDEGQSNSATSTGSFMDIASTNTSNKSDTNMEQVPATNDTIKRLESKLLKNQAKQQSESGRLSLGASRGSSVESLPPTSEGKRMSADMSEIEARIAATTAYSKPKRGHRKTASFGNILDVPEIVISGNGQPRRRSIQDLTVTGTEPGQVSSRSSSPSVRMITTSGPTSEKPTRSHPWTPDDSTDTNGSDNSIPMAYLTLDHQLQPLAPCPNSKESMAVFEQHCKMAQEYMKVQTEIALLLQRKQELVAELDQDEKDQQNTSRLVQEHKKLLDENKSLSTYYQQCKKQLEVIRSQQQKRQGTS
UniProt P07711, sequence (whole entry, looked up): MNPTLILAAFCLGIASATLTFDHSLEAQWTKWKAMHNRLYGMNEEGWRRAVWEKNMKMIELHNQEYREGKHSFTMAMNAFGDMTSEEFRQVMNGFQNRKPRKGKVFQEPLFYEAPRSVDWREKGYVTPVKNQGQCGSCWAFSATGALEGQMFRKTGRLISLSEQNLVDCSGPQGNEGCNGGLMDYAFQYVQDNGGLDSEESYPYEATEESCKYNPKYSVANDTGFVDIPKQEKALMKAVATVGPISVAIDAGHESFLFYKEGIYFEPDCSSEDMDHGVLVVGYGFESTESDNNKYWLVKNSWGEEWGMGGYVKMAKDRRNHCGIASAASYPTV
UniProt Q9P2K8, sequence (whole entry, unmodified, looked up): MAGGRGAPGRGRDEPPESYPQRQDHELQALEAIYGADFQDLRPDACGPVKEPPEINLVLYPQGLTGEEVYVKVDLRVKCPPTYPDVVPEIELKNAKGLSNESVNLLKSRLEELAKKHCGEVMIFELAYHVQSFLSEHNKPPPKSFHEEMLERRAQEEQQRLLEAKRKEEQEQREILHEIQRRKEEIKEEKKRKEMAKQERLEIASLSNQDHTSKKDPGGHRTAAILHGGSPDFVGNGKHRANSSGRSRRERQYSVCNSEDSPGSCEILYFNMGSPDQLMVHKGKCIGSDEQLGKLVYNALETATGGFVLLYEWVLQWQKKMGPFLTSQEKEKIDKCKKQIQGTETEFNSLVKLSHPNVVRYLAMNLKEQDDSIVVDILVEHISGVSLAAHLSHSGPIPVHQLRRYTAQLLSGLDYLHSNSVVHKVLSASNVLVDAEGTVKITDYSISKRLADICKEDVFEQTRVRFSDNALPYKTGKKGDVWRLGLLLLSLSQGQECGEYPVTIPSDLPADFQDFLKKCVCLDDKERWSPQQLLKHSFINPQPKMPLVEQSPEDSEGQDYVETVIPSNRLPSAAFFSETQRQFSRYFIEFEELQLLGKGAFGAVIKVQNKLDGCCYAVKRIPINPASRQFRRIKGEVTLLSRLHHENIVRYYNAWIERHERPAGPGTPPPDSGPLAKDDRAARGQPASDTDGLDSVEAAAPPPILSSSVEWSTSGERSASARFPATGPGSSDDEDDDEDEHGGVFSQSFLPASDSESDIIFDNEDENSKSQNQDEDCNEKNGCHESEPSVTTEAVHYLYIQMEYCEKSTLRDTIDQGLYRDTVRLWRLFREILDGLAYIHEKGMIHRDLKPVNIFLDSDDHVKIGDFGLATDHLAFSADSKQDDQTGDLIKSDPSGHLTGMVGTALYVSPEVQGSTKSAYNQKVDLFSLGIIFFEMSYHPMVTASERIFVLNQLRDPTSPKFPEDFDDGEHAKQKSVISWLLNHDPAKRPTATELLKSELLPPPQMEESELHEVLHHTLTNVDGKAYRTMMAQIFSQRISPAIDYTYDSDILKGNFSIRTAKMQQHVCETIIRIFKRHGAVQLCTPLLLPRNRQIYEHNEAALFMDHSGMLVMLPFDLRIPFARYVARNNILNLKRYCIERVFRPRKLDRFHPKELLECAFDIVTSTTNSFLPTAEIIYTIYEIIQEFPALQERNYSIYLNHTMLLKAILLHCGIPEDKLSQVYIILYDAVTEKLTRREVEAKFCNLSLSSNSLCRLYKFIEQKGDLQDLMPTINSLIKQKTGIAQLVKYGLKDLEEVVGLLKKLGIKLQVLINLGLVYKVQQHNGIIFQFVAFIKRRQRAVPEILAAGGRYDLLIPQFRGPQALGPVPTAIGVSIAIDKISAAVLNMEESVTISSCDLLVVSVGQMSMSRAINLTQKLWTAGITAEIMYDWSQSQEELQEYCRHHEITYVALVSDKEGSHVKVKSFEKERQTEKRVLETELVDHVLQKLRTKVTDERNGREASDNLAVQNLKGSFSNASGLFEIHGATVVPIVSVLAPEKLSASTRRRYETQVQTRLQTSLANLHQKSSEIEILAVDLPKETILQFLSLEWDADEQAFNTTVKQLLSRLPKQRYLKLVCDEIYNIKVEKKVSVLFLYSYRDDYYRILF
UniProt P41144, sequence (whole entry, looked up): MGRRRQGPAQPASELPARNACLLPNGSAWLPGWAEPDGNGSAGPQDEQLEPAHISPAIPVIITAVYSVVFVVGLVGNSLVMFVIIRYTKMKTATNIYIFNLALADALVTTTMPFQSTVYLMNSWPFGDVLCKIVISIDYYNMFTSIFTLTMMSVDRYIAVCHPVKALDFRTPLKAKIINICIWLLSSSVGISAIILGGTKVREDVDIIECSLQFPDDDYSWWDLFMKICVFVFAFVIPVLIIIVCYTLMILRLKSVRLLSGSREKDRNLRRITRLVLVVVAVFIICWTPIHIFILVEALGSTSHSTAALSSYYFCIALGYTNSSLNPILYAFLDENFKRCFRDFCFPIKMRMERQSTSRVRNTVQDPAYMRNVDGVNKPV
UniProt P21554, sequence (whole entry, looked up): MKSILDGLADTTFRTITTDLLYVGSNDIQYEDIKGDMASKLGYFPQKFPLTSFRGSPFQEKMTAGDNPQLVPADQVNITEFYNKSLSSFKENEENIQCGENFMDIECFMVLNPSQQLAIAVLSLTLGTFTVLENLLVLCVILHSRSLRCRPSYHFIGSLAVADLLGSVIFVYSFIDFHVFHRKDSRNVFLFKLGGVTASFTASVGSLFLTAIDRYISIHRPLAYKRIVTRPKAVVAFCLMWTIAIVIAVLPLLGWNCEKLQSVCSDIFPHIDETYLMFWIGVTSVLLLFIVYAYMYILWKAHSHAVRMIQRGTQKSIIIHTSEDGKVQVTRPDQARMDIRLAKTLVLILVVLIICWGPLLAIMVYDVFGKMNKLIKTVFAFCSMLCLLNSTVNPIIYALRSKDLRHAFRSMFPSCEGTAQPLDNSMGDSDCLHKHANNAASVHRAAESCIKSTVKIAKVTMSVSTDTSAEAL

c1cncc([C@@H]2CCCN2)c1
inhibition (HRH3 (Homo sapiens, UniProt Q9Y5N1); ligand displacement; 50 µM): 14%

CC(=O)c1c(Cc2ccccc2Cl)c[nH]c1C
IC50 (PFF0160c; enzyme activity, inhibitor, absorbance): 800 nM

CC[C@H](C)[C@H](NC(=O)[C@H](CCc1ccccc1)NC(=O)CCc1ccccc1)C(=O)N[C@@H](CCCNC(=N)N)C(=O)c1nc2ccccc2s1
activity vs control (TMPRSS2; enzyme activity, inhibitor; 1 nM): 88%

C#Cc1n[nH]c2c(-c3cn(C(C)c4ccccn4)c(=O)[nH]c3=O)cc(F)cc12 (centres unmarked)
inhibition (EPHB4 (Homo sapiens, UniProt P54760); enzyme activity, inhibitor; 1 µM): 3.8%

CC(C)[C@H](NC(=O)CCc1ccccc1)C(=O)N[C@@H](CCCNC(=N)N)C(=O)c1nc2ccccc2s1
activity vs control (TMPRSS2; enzyme activity, inhibitor; 1 nM): 106%

Cc1nn(C)cc1-c1nc2c(N3CCN(Cc4ccc(Cl)cc4)CC3)c(Cl)cnc2[nH]1
remaining binding (eIF-2-alpha kinase GCN2, C-terminal kinase domain (EIF2AK4, Homo sapiens, UniProt Q9P2K8, S808G); binding, competition with immobilised ligand; 1 µM): 100%

Nc1ncc(-c2nc(N3CCOCC3)nc(N3CCOCC3)n2)c(C(F)F)n1
remaining binding (ALK (Homo sapiens, UniProt Q9UM73); cell-free assay, competition with immobilised ligand; 10 µM): 26%

N=C(N)NCCC[C@H](NC(=O)[C@H](Cc1ccc(O)cc1)NC(=O)[C@H](CS)NC(=O)[C@@H](N)Cc1c[nH]c2ccccc12)C(=O)c1nc2ccccc2s1
activity vs control (TMPRSS2; enzyme activity, inhibitor; 1 nM): 96%

CC(C)CC(=O)OC[C@H]1O[C@@](C#N)(c2ccc3c(N)ncnn23)[C@H](O)[C@@H]1O
inhibition (ADRB1 (Homo sapiens, UniProt P08588); cell-free assay; 20 µM): 8%

CN(CC[C@H](N)CC(=O)N[C@H]1C=C[C@H](n2ccc(N)nc2=O)O[C@@H]1C(=O)O)C(=N)N
remaining activity (Procathepsin L (CTSL, Homo sapiens, UniProt P07711); enzyme activity, inhibitor; 100 µM): 160%

[2H]c1c([2H])c([C@]2([2H])CCCN2C(=O)C(C)(C)Oc2ccc3cn[nH]c3c2)c([2H])c([2H])c1C([2H])([2H])[2H]
remaining binding (IGF1R (Homo sapiens, UniProt P08069); binding, competition with immobilised ligand; 1 µM): 81%

COc1ncccc1-c1cnn2ccc(N3CCN(C(=O)OC(C)C)CC3)nc12
remaining binding (MAP3K7 (Homo sapiens, UniProt O43318); binding, competition with immobilised ligand; 1 µM): 100%

C[C@@H](O)[C@@H]1CN([C@H](Cc2ccc3ccccc3c2)CN2CCC[C@H]2CN2CCNC[C@@H]2Cc2ccc3ccccc3c2)CCN1CCC12CC3CC(CC(C3)C1)C2
remaining binding (OPRK1 (Cavia porcellus, UniProt P41144); ligand displacement, radioligand; 0.5 µM, pH 7.5): 109%

C[C@H](NC(=O)[C@H](CCC(N)=O)NC(=O)[C@H](CCCNC(=N)N)NS(=O)(=O)c1ccccc1)C(=O)N[C@H](CCCNC(=N)N)C(=O)c1nc2ccccc2s1
activity vs control (TMPRSS2; enzyme activity, inhibitor; 1 nM): 12%

O=C(N=Nc1c(O)n(CCCCCF)c2ccccc12)c1ccccc1
Emax (CNR1 (Homo sapiens, UniProt P21554); β-arrestin recruitment, agonist; HEK293): 97.7%

Cn1nc(C(=O)N2CCC(c3[nH]ncc3Cc3ccccc3)CC2)c2ccccc2c1=O
IC50 (PFF0160c; enzyme activity, inhibitor, absorbance): 294 nM

N=C(N)NCCC[C@@H](NC(=O)[C@H](Cc1ccc(O)cc1)NC(=O)[C@H](Cc1cscn1)NC(=O)CCc1ccccc1)C(=O)c1nc2ccccc2s1
activity vs control (TMPRSS2; enzyme activity, inhibitor; 1 nM): 33%

Some of these lines once more:
CC(C)CC(=O)OC[C@H]1O[C@@](C#N)(c2ccc3c(N)ncnn23)[C@H](O)[C@@H]1O
inhibition (ADRB1 (Homo sapiens, UniProt P08588); cell-free assay; 20 µM): 8%
